# Results from different studies.
# Every numbered part comes from another study and shows a few of its results, in no order. Positions count from the first letter of the parent shown.

# Block 1
# Target: PABPC1L2, full length, GST fusion (mouse, UniProt A0ABA7IW68)
# Technique: RNAcompete
# Molecule type: RNA
# Sample: in vitro
# Concentration: 20 nM
# Setting: 7-mer, probes averaged, single round
# Relative to: mean of 7-mers
# Direction: higher = stronger binding
Oligonucleotide,7-mer Z-score
ACUAGCU,-0.266
UCAGAUU,-0.199
UACAGGC,0.195
CGACUAU,-0.142
AGCCCAC,-0.351
CGGCAGC,0.0243
GACGGGG,-0.133
AAGCGUA,0.0841
UUACGAG,0.119
GGCGUUG,0.131
UUGUGCU,-0.228
UCGAAUG,-0.231
GAUCGGC,-0.0754
AAGCAUU,0.0297
GAGAUGG,0.177
CUCGCCC,-0.467
UACGACA,-0.0446
UGUUCUC,-0.387
AGCUAUC,-0.222

# Block 2
# Target: CCNB3, cyclin fold, Cln2 fusion (human)
# Technique: yeast growth competition, sequencing
# Sample: yeast
# Setting: strong parent motif
# Relative to: not given
# Direction: higher = stronger binding
# Parent: RBL2 docking peptide (human); STTRRRLFVENDS; partner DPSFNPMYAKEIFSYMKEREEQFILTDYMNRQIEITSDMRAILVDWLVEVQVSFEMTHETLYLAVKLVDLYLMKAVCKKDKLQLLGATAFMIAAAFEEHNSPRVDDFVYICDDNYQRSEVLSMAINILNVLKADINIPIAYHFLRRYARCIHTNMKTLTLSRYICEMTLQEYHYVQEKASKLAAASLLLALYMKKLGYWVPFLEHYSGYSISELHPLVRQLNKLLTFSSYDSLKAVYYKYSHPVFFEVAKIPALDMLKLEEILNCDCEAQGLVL
Change,normalised enrichment score
SDTRRRLFVENDS [T2D],0.342
STTRRRLFVENYS [D12Y],0.909
STTRRRLFVDNDS [E10D],1.73
KTTRRRLFVENDS [S1K],0.607
STERRRLFVENDS [T3E],-0.0451
STTRRRLDVENDS [F8D],0.0359
STTRNRLFVENDS [R5N],0.211
STTRRRLFDENDS [V9D],0.788
STTRRRLFVRNDS [E10R],0.209
SFTRRRLFVENDS [T2F],0.648
STTRRRLFVENDC [S13C],0.842
STTRRRLTVENDS [F8T],0.125
STTRRRLVVENDS [F8V],-0.367
STTRRRLFVENDA [S13A],1.03
SSTRRRLFVENDS [T2S],1.15
STTRRRLFVENDP [S13P],1.8
STTRRRLFVYNDS [E10Y],0.516
STTRRRLFPENDS [V9P],0.756
STTRRRLFIENDS [V9I],0.783
STTTRRLFVENDS [R4T],0.623
STTYRRLFVENDS [R4Y],0.683
STTRRRLFVENDH [S13H],1.04
STTRRRLFVEIDS [N11I],0.307
STTRRGLFVENDS [R6G],0.0849
TTTRRRLFVENDS [S1T],1.01

# Block 3
# Target: Sal-like protein 4, full length isoform A (SALL4, Homo sapiens, UniProt Q9UJQ4, residues 1-1053)
# UniProt Q9UJQ4, sequence (whole entry, looked up): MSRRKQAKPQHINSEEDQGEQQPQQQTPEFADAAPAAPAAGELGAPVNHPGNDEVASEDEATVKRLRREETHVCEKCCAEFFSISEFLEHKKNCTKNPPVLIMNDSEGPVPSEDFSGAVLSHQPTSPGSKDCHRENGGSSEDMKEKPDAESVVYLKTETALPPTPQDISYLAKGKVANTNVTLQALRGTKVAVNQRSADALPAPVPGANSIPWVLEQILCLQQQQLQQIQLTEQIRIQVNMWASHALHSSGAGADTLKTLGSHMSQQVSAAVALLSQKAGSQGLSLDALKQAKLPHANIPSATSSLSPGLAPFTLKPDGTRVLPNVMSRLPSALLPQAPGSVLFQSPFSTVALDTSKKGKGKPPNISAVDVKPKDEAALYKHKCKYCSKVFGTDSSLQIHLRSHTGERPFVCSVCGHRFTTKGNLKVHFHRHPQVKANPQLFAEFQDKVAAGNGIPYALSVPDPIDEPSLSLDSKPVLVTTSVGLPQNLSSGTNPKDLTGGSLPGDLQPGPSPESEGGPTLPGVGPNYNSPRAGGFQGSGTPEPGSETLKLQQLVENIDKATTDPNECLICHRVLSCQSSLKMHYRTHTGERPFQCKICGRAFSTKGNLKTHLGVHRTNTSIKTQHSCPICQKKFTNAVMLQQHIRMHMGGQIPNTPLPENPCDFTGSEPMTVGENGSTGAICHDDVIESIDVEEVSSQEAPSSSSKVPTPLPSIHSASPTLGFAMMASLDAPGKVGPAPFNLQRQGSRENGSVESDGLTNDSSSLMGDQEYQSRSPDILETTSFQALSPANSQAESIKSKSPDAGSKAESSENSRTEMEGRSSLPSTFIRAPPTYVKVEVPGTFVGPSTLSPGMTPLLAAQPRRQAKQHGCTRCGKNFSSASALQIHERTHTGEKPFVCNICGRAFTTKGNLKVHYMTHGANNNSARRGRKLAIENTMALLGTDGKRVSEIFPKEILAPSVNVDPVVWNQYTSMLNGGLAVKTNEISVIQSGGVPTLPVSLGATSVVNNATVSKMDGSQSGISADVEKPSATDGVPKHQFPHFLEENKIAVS
# Technique: universal PBM
# Molecule type: double-stranded DNA, one strand shown
# Sample: in vitro
# Concentration: 600 nM
# Setting: 8-mer, flanks averaged, mean of replicates
# Direction: higher = stronger binding
Oligonucleotide,E-score
ATTCGCAC,-0.206
CGCGTGCA,-0.145
ACTCGCTG,-0.186
CTAGCGGA,-0.317
CACGATTC,-0.0205
GTCAGACA,-0.0268
AATGCACA,0.176
GGAACGGA,-0.0595
ATGAGTCG,0.0577
GAAACACA,0.205
CGGTTCGA,-0.135
AACTAAAT,0.155
CAATTTCA,0.214
CAGGTCAG,-0.0978
ATTCCTGG,-0.00736
AAGCACCT,-0.0632

# Block 4
# Target: Histone acetyltransferase KAT6A, both winged helices, GST fusion (KAT6A, Homo sapiens, UniProt Q92794, residues 1-181)
# Technique: protein binding microarray
# Molecule type: double-stranded DNA, one strand shown
# Sample: in vitro
# Concentration: not given
# Setting: 8-mer, flanks averaged, mean of 2 arrays, mostly near background
# Relative to: not given
# Direction: higher = stronger binding
# Target sequence (chain): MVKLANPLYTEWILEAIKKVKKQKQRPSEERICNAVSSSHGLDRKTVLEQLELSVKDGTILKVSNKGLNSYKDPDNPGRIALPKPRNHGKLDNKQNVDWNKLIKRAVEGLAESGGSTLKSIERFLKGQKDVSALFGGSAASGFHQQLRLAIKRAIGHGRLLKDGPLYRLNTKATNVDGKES
Oligonucleotide,E-score
AACTCGAG,-0.155
GCCGAAAA,0.194
CCACCGCA,0.0669
CAGGGCCG,0.199
GTTTAGGA,-0.043
AAGGGGAT,-0.257
ACCCAGAC,0.0679
AGCCTTTA,-0.0444
TAGATCTA,-0.0247
ATACAGCG,0.122
TCCATACA,-0.205
ACCGGGCC,0.19
CAATGCTC,-0.09
GTCTCACA,0.00449
ACCTAGGC,0.0092
AGGTGGTA,-0.0762
AAGGGAAA,-0.139
AGGGGGTC,-0.154
ATCCCTAC,-0.0976
ACCCATGA,-0.243
CAGCGCCC,0.0953
CGACATCC,0.0915
GATCAGTA,0.014
CGTTTGGC,0.122

# Block 5
# Target: Interferon regulatory factor 7, full length, phosphomimetic (IRF7, Homo sapiens, UniProt Q92985, residues 1-503, S471D/S472D/S475D/S476D/S477D/S483D/S484D/S487D)
# UniProt Q92985, sequence (whole entry, unmodified, looked up): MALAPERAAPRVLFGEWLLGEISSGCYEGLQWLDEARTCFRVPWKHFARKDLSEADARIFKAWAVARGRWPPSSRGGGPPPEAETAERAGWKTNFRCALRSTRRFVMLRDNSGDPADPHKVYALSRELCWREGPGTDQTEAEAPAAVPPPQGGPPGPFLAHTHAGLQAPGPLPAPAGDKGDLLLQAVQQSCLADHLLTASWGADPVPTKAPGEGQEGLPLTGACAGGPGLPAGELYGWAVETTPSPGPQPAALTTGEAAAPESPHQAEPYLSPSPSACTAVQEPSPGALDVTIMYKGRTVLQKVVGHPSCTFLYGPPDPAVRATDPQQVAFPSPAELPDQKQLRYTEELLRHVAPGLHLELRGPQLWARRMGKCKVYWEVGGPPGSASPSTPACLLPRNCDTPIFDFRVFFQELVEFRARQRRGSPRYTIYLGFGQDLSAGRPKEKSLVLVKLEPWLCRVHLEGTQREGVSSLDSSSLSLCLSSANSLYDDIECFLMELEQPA
# Technique: protein-binding microarray
# Molecule type: double-stranded DNA, one strand shown
# Sample: in vitro
# Concentration: 2200 nM top
# Setting: 60-bp whole probe
# With: salmon DNA 0.4 mg/ml
# Relative to: random background probes
# Direction: higher = stronger binding
# Constant ends, left off below: GCCTAGCAC … GTCTTGATTCGCTTGACGCTGCTG
Oligonucleotide,fitted relative affinity [z-score]
TTGGTTTTCTCTATTGCTTTGTGCTAG,2.18
TGTTCTTTTCTGTTGTCTGTGTGCTAG,3.35
GACGATATCAGGTTCGAGACGTGCTAG,0.499
TTAGGTTTCGGGTTTCGGGTAGTGCTA,10.1
GACGGTATCCTTATCCCGACGTGCTAG,0.954
AACGGACTGGACACTGGGGACGTGCTA,-0.643
TCGAGTCTGCAACATGGGACTGTGCTA,0.694
TTAGGACTGGGTCTGGGTTAGTGCTAG,-0.774
GACGATATTGGGTTTCGAGACGTGCTA,1.64
TCATGCTTGCGTCTGGGACTGTGCTAG,0.482
CAGGGTTTCAGATGCGTGAGGTGCTAG,0.141
TGAGGTTTCGGGTTTCGGTTAGTGCTA,10.7
GTGATGTGAGGGGAGAGGGAGTGCTAG,-0.278
TCTGGTTCCCATTCCAGGGTGTGCTAG,2.14
TCATCTTTCTACATAGAACTGTGCTAG,1.83
AGAATTTTCATTAACTGTTAGTGCTAG,0.108
TTGGATCTCAGACTGGATTAGTGCTAG,0.225
GACGATATCGGGTATCGAGAAGTGCTA,-0.0211

# Block 6
# Target: Fragile X messenger ribonucleoprotein 1, C-terminal low-complexity region (Fmr1, Mus musculus, UniProt P35922)
# Technique: RNA Bind-n-Seq
# Molecule type: RNA
# Sample: in vitro
# Concentration: 200 nM
# Setting: whole 134-nt RNA, ends assumed
# With: 150 mM KCl
# Relative to: input library
# Direction: higher = stronger binding
# Constant ends, left off below: GGGAGUUCUACAGUCCGACGAUC … UGGAAUUCUCGGGUGUCAAGG
Oligonucleotide,log2 enrichment
ACCAUGCAGGUGGGCAUCUUUGGGAAGUGGGGCAAGGGGGGGAUAGGGAGGGGGGUAACACUUUGGGAACAGGUGAUCCCAGGUCGUUUC,0.832
UGGGAGGUGGAUUUUGUUUAUUUUUUUAGCUCAUUUCCAGGGGUGGGAAUUUUUUUUUAAUAUGUGUCAUGAAUAAAGUUGUAUUUGAAA,-0.00805
AGUCCUGUGCUACACAUCGUAUGUACCGAAUCGGGGUGGGGUGGGGUUUUUUUGGGGAAAGUAUUAUGUUACGCCGUUCGGAUCUGCACU,1.08
CACAGACAACACGCACCCACACAGACACAGAGGGAAGGGGUUGGGAUGGGGGCAGGGUGCACAGCAGGGCGGGGUAGGACCCCAGCCCCU,1.17
AGUCCUGUGCUACACAUCGUAUGUACCGAAUCAAAUUUUUAAAUUUUUAAAUUUAAAAAAGUAUUAUGUUACGCCGUUCGGAUCUGCACU,-1.47
GCAGGUAGUAAAAACAAAUGGAAAUGCUUCGGAUAGUGGCAGGGGUGGGGGUUGCUAAGGAAAGGGUGGGAUGGGAGUGGGUAAAGAGUU,0.434
UCCUGUGCUACACAUCGUAUGUACCGAAUCAAAUUUAAACCCCCCCAAACCCCCCCAAAAAAGUAUUAUGUUACGCCGUUCGGAUCUGCA,0.196
UCAAGUCCUGUGCUACACAUCGUAUGUACCGAAUCGGGGAAGGAAGGGGAAGGGAAAGUAUUAUGUUACGCCGUUCGGAUCUGCACUUCC,0.797
AAGUCCUGUGCUACACAUCGUAUGUACCGAAUCGGGAAAAGGAAAAGGGAAAAGGGAAAGUAUUAUGUUACGCCGUUCGGAUCUGCACUU,-0.473
UAACUUUAGAGGAGGAUCUGAUGGAUAUGGCAGUGGACGUGGAUUUGGGGAUGGCUAUAAUGGGUAUGGAGGAGGACCUGGAGGUGGCUA,0.253
GUCCUGUGCUACACAUCGUAUGUACCGAAUCGGGAAAAAAGGAAAAAAGGAAAAAAGGAAAGUAUUAUGUUACGCCGUUCGGAUCUGCAC,-0.5
UGGGAGGUGGAUUUUGUUUAUUUUUUUAGCUCAUUUGCAGGGGUGGGAAUUUUUUUUUAAUAUGUGUCAUGAAUAAAGUUGUUUUUGAAA,0.354
UCCUGUGCUACACAUCGUAUGUACCGAAUCGGGCCCCCCGGCCCCCCGGGGCCCCCCGGGAAAGUAUUAUGUUACGCCGUUCGGAUCUGC,-0.0236
CCUGUGCUACACAUCGUAUGUACCGAAUCGGUUUUUUUGGGUUUUUUUGGUUUUUUUGGGGAAAGUAUUAUGUUACGCCGUUCGGAUCUG,-0.843

# Some of these lines once more (block 1):
Oligonucleotide,7-mer Z-score
AAGCAUU,0.0297
CGACUAU,-0.142
AGCUAUC,-0.222
UACGACA,-0.0446
UCAGAUU,-0.199
CGGCAGC,0.0243
